Measured values gathered from unrelated publications.
Each line is one published result; not all experiments were run side by side. Values joined by “and” are separate records of one study, mostly repeats; a detail may differ. ± marks the error that the study gave.

For C(=C/c1ccccc1)/c1ccccc1, the EC50 was > 50 µM (THP-1; apoptosis, flow cytometry, refers to: caspase-3 activity; 24 h, 50% apoptosis induction).
Oc1cccc2cnccc12 has an EC50 of > 40 µM (mouse DRG neurons axotomized; axon fragmentation; 2 h pretreatment, 16 h post-axotomy).
With Nc1ncnc2c1c(-c1ccc(Cl)c(C(F)(F)F)c1)cn2[C@@H]1O[C@H](CO)[C@@H](O)[C@H]1O the EC50 was 84.2 ± 3.7 µM (HEK; cytotoxicity).
The EC50 of CSCCC(C(=O)Nc1ccc2c(c1)OCCO2)N1Cc2ccccc2C1=O (centres unmarked) is reported as 8.7 ± 2.6 µM (MEF with dox-inducible FLAG-LMNB1; lamin B1 reduction, high-content imaging, refers to: lamin B1; 48 h, with: doxycycline).
With Nc1ncnc2c1c(-c1ccc(F)cc1)cn2[C@H]1C[C@H](O)[C@@H](CO)O1 the EC50 was > 200 µM (HEK; cytotoxicity).
For CCc1c2c(nc3ccc(O)cc13)-c1cc3c(c(=O)n1C2)COC(=O)[C@@]3(CC)OC(=O)[C@H](N)C(C)C, the EC50 was 52.1 µM (CT26; cell viability, MTT; 72 h).
The EC50 of CCOC(=O)CCCCC[C@@H]1NC(=O)[C@H]2CCCN2C(=O)[C@H](Cc2ccccc2)NC(=O)[C@H](Cc2ccccc2)NC1=O is reported as 6 ± 0.8 µM (human iPSC-derived NPCs; inducer, ELISA, refers to: intracellular progranulin; 18 h).
For FC(F)(F)c1ccnc(-c2cc(C(F)(F)F)ccn2)c1.FC(F)(F)c1ccnc(-c2cc(C(F)(F)F)ccn2)c1.[Cl-].[Cl-].[Ru+2].c1csc(-c2ccc(-c3ccc(-c4nc5c6cccnc6c6ncccc6c5[nH]4)s3)s2)c1, the EC50 was 1.2 µM and ~1 µM (SK-MEL-28; cell viability; hypoxia 1% O2, with: visible light).
For C=C1[C@H](O)CC(=C/C=C2\CCC[C@]3(C)[C@@H]([C@@H](C)CCCC)CC[C@@H]23)C[C@H]1O, the EC50 was 0.005 µM (HL-60; cell differentiation, NBT reduction; 50% maturation).
For Nc1ncnc2c1c(-c1ccc(O)cc1)cn2[C@@H]1O[C@H](CO)[C@@H](O)[C@H]1O, the EC50 was > 200 µM (HEK; cytotoxicity).
With CC(C)C[C@@H](/C=C/CC(=O)N1CCC[C@H]1C(=O)N[C@H](C(=O)N[C@@H](CCCNC(=O)OCc1ccccc1)C(=O)NC1CC(C)(C)N([O])C(C)(C)C1)C(C)C)NC(=O)OC(C)(C)C the EC50 was 0.895 µM (HT-1080; protection from ferroptosis, PrestoBlue; 24 h, with: erastin 10 µM).
With Nc1ncnc2c1c(-c1ccc(Cl)c(Cl)c1)cn2[C@H]1C[C@H](O)[C@@H](CO)O1 the EC50 was > 200 µM (HEK; cytotoxicity).
With C=C1[C@H](O)CC(=C/C=C2\CCC[C@]3(C)[C@@H]([C@H](C)CCCCO)CC[C@@H]23)C[C@H]1O the EC50 was 0.02 µM (HL-60; cell differentiation, NBT reduction; 50% maturation).
With CCc1noc(CC)c1C(=O)O[C@H]1C(C)=C[C@]23C(=O)[C@@H](C=C(CO)[C@@H](O)[C@]12O)[C@H]1[C@@H](C[C@H]3C)C1(C)C the EC50 was 0.0033 µM (primary human epidermal keratinocytes; IL-8 release, stimulator; 6 h).
